# Experimental data pooled from the literature.
# Every numbered part comes from another study and shows a few of its results, in no order.

# Study 1
# Target: Centromere-binding protein 1, full length, His-tagged (CBF1, Saccharomyces cerevisiae, UniProt P17106, residues 1-351)
# UniProt P17106, sequence (whole entry, looked up): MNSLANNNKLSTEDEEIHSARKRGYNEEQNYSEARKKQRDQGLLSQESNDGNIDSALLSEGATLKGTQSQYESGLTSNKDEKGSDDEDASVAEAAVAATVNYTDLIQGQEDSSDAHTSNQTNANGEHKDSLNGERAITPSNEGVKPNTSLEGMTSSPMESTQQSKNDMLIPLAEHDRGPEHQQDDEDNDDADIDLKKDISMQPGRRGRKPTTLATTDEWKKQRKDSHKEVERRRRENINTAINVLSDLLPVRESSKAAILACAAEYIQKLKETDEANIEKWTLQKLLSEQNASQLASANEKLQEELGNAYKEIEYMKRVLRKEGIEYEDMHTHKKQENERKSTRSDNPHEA
# Method: competition protein-binding microarray
# Form: double-stranded DNA, one strand shown
# Matrix: in vitro
# Tested at: 2 µM
# Notes: whole 60-bp probe, lowest competitor level
# Together with: Pho4 competitor, 0.05 µM
# Reading: higher = stronger binding
Sequence,fluorescence intensity [a.u.]
ATTAGCTAGAATAATCGCGTGTGTTGTCTTGGCTGGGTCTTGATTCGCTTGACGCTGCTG,82.7
AAATTACTAAGTTGCGGCGTGGGTGACGCCGTATGAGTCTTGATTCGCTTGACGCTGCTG,62.4
ACCCGGGCAGCCGTTTCCGTGCCGAGGTTCCTCCGAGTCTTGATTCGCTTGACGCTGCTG,44.8
TATTCATTGCAGTTACACGTGAAGGCTAAACTTTATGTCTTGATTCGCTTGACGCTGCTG,895
CGTCCTAGTGATTGCGGCGTGGGTGCCATGAGGAAGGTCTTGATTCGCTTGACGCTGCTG,81.7
AAAAAAATAAATGAACACATGGAAATAAGTCAAGGAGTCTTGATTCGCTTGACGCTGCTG,136
AGGGAACAGTGCCTACACGTGGCTTGCAATCCACTAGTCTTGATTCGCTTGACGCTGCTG,758
CTTTCCCGATCTTGTACCGTGGGTGTAGCACATTTGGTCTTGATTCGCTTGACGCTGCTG,62.8
CGGGGTTAAGTTTGTCACGGCACTTGCTTGCAGCAGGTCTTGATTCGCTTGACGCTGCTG,90.8
GTCTTGTCTCATTGGGCGGTGGGTGTCCCCACTTCAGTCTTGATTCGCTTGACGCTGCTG,78.2
CGGGGTTAAGTTTGTTAGGTGGGTGGCTTGCAGCAGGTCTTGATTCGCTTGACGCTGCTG,84.9
AAGTGCAGATCGCTGTCTTGCTCCAATCCTCTTATTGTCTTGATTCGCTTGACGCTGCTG,60.4
TCAAATATTCCATCGCACGTGTAGTACCCAATGGTTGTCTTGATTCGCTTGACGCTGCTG,968
ACAACGTAAAACTTGCATGTGAGGCTTAGGTGATTTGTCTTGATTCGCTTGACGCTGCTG,142
TGAGAAGAGAGGCCACACATGCTGTTGGGGTTCATGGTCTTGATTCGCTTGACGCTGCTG,66.1
GATTCTTCAGTTTAGCACGTGCCGATTTGGCCTCTTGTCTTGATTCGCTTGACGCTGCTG,2910
ATCTAATTGAACATTCTCGTGCGATTAAACGTCATTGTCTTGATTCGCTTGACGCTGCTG,103
TATAGCTCTTTAATGCACATGCAAATGCGGTGGCGCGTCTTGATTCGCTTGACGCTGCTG,108

# Study 2
# Target: RNA binding protein fox-1 homolog 2, RRM domain, GST-SBP tag (RBFOX2, Homo sapiens, UniProt O43251-10, residues 100-194)
# Method: RNA Bind-n-Seq
# Form: RNA
# Matrix: in vitro
# Tested at: 365 nM
# Notes: natural RNA segment, single round, ends assumed
# Baseline: no-protein control
# Reading: higher = stronger binding
# Target sequence (chain): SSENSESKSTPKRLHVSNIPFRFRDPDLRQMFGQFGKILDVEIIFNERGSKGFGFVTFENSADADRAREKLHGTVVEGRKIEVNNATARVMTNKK
Sequence,RBNS enrichment (R)
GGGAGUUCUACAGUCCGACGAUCUCCACCUCAGUGGCUUAGCCUUUGGGACAGUGGAUACUGCAACAGCCAAGAACUCUUGGUUAUCCGCACAAGCUGCUGGUAGACUACAUUAGCCCUCUGGUUUUCCAGCUUGGAAUUCUCGGGUGCCAA,0.212
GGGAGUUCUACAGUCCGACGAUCAUGAUACCAAAUUCAGGGGUGUCACAGCCAUUUUGUUCUGCCCUGCAAGUUUUAGAUCCAAUCUGCCUCAACAGUCAAUCAGUGUUCAUAUUUAUGGCCAGGCAUUCUAUUGGAAUUCUCGGGUGCCAA,0.777
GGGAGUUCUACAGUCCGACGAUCUGAAAGACUUUACCACAUCAGGGCUUCCUGUGGUUCAAAAUAGUUCAGAAUCAUCGUAAUUACAAAACUGAAAAUAAAAGUUCUGAAAAAUGACACAACUCCUAUAACAGUGGAAUUCUCGGGUGCCAA,0.362
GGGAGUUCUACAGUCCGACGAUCACUAACAAACGAUAGCUGAUUGAAGGCAACAGGAAAAAAAAAAUCAAAUUGUCCUACUGACGUUGAAAGCAAACCUUUGUUCAUUCCCAGGGCACUAGAAUGAUCUUUAGUGGAAUUCUCGGGUGCCAA,0.202
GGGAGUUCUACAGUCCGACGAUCGGAGGCGGGAGGGGGCAGCGCUGGGCCUCGUGUCGCUUGUCGUCGUCCGUCCUGUGGGCGCUCUGCCCUGUGUCCUUCGCGUUCCUCGUUAAGCAGAAGAAGUCAGUAGUUGGAAUUCUCGGGUGCCAA,0.378
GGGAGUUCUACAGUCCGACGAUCUCUUUCAAUGCCUAAGUGUCUUCUUCUAUCACUCCACACCCACAGUUGCCACUUGGGGUGCACAGAUAAGGGUAGGUCACCAACUGAUUAUGCCUGUCUCUGAGCCAUGCUGGAAUUCUCGGGUGCCAA,0.764

# Study 3
# Target: RING finger protein unkempt homolog, zinc fingers 1-6, GST-SBP tag (UNK, Homo sapiens, UniProt Q9C0B0, residues 30-357)
# Method: RNA Bind-n-Seq
# Form: RNA
# Matrix: in vitro
# Tested at: not given
# Notes: RNA with constant flanks, human and mouse sites, ends assumed
# Baseline: input RNA pool
# Reading: higher = stronger binding
# Construct (chain): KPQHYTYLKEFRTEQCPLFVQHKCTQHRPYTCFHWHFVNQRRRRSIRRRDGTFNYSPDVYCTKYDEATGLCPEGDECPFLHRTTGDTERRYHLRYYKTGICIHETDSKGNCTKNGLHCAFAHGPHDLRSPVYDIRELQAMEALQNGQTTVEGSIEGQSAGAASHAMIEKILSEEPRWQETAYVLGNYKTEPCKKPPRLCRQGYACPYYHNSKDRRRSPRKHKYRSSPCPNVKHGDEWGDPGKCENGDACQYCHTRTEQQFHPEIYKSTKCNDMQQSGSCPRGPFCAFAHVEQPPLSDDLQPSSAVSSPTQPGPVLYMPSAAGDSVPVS
Sequence,bound/input enrichment
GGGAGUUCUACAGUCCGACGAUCAGCCGCAGCCUCUAUUCCUCAUCCCCCGGUGGCGCCUAUGUGACCCGGUCCUCGGCAGUGCGCCUGCGGAGCAGCGUGCCGGGCGUGCGGCUGCUUCAAGACUCGGUGGACUUCUCGCUGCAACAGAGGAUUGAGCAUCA,0.118 ratio
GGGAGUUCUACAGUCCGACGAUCAUCUCUUGCGGCUGAAAGUGGACAUCUUAUUAGACAUGCUUUCAGAGUCCACUGCUGAAUCCCACUUAAUGGAGAAGGAACUGGAUGAACUGAGGAUCAGCCGGAAGAGAAAAUGAAGACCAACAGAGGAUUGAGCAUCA,0.478 ratio
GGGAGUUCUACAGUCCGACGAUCCUGAUUCACAGGGACAUUAAAGCAGGGAACAUCCUCCUCACAGAGCCAGGUCAGGUGAAGCUGGCUGACUUCGGAUCUGCCUCCAUGGCUUCUCCCGCCAACUCCUUUGUGGGGACUCCUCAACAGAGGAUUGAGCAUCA,0.0583 ratio
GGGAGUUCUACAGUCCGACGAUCAUUCAGGCACAACUGACUGGUUCACAGCAUCCCUUACAUAGCUACCUAUCAAGUGCAAGUAUUGGUAAUUUUCAGGAACCAUCCAGGCAGUCGUCUUUAUCCUGUAGUUCAGUUCGAGAUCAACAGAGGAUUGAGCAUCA,0.205 ratio
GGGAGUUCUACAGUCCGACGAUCACAGAAAACAUCAAUAGUGGUUAUGAGACCAGAAGGAAAAAAGGAAAAAAAGAGAAAGAUACUUCAAAAGAAAAAGACAUACAAAAUCAGAAUAUGACUUUGGACUGUGAAGGAACAAACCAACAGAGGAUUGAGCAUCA,0.501 ratio
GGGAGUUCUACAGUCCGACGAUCGCUGAAGUACCACACAUCAGAGAGAGAGUGAUGAGAGAGGGGCGCCACCUGUGCUUCCAGUUAGUAAGCCCAUUGGGAGUAGCCAUUUCUACUCUGAGUUACAUCAACAGGACAAAUCAGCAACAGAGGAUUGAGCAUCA,0.314 ratio
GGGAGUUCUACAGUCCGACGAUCAGAGGGAGCCAAACAAAAUUGCUAUGCUAUAUGAUGCUGUUUUCAUUGUUUGUCUUUUUUGUCAUUUAUUGGAUUAUUAAACUGAGGUGAUGGAAGUUAGUGUGGGCUUUGAAUUUGUUGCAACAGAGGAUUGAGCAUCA,0.812 ratio
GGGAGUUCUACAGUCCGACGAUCGCAGCAGCGGUCCCAUCGGCUGAAGUUCGGGGGGGGUGGGGCGCCGAGCGCGCGGGGUGGGGGGGGUCCUGGUCUUUGGCUUCUCGACUCGGUCCUGUUUCGACAGCGAACAUGUCGCGGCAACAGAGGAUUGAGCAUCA,2.64 ratio

# Study 4
# Target: Histone acetyltransferase KAT6A, winged helix 1, GST fusion (KAT6A, Homo sapiens, UniProt Q92794, residues 1-85)
# Method: protein binding microarray
# Form: double-stranded DNA, one strand shown
# Matrix: in vitro
# Tested at: not given
# Notes: 8-mer, flanks averaged, mean of 2 arrays, mostly near background
# Baseline: not given
# Reading: higher = stronger binding
# Residues (chain): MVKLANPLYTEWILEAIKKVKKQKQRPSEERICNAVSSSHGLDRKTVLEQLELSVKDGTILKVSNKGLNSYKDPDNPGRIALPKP
Sequence,E-score
AAGAAATC,-0.317
AGTGCCAA,-0.228
TAGCGGAA,0.174
ACTCCAGA,-0.197
CATGCGAC,0.135
AACTCCAC,-0.121
AGGCAACT,-0.133
CACGCAGG,-0.0492
AGGTATAT,-0.0798
AATGCACA,-0.0947
CTACTATC,0.0895
AATAGTCT,-0.161
CGGCGGGC,0.46
AAAGTGAA,-0.0371
CTACGCAC,0.0285
AAAGCCCT,-0.104
CAAACTCG,-0.00915
GGCTGCTA,-0.0152
TACAACCA,-0.123
CTCAGTCA,-0.172
CTATGGCC,0.039
AACCTATT,-0.0379
CAATCGAA,-0.111
AGGTGACT,-0.243
CCAGAGTC,-0.14

# For quick reference, copied from above (study 1):
Sequence,fluorescence intensity [a.u.]
CGGGGTTAAGTTTGTCACGGCACTTGCTTGCAGCAGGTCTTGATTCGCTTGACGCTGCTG,90.8
AAGTGCAGATCGCTGTCTTGCTCCAATCCTCTTATTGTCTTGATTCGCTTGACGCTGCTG,60.4
CGTCCTAGTGATTGCGGCGTGGGTGCCATGAGGAAGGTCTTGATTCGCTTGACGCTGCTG,81.7
TGAGAAGAGAGGCCACACATGCTGTTGGGGTTCATGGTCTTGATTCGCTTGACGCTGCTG,66.1
CGGGGTTAAGTTTGTTAGGTGGGTGGCTTGCAGCAGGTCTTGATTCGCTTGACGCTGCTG,84.9
